# Assay results pooled from the literature.
# Each numbered part is a random draw from the data of one study; scales do not carry over between parts. Several values in a cell are separate wells, animals, samples, runs or records.
# Chain of UniProt P11802 (whole entry, looked up): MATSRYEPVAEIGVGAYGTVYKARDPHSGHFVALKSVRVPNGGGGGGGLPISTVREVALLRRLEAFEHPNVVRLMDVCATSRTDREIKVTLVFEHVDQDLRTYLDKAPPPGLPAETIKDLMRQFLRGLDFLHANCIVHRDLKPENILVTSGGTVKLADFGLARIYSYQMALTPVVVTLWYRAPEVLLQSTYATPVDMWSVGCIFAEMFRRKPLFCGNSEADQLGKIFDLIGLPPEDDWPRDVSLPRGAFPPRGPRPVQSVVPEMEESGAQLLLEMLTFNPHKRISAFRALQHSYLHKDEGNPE
# Chain of UniProt Q04759 (whole entry, looked up): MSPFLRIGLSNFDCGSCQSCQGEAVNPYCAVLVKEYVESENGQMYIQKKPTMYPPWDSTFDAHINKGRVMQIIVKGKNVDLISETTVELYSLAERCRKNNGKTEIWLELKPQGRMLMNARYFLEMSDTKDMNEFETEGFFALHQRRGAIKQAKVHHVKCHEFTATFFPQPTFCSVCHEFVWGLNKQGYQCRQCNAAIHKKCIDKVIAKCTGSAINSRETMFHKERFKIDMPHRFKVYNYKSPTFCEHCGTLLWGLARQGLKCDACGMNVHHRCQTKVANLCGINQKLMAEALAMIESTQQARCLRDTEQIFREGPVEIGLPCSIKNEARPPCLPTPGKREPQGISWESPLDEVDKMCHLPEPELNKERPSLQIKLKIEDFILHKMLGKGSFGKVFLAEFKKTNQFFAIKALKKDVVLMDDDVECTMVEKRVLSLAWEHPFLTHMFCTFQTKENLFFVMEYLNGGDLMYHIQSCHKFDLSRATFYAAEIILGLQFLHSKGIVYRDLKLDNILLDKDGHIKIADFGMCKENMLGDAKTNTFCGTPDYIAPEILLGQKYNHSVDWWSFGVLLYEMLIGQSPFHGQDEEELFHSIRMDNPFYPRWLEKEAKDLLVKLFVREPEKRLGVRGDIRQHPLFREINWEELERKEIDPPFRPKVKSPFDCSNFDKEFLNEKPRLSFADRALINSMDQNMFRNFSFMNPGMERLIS
# Chain of UniProt O15111 (whole entry, looked up): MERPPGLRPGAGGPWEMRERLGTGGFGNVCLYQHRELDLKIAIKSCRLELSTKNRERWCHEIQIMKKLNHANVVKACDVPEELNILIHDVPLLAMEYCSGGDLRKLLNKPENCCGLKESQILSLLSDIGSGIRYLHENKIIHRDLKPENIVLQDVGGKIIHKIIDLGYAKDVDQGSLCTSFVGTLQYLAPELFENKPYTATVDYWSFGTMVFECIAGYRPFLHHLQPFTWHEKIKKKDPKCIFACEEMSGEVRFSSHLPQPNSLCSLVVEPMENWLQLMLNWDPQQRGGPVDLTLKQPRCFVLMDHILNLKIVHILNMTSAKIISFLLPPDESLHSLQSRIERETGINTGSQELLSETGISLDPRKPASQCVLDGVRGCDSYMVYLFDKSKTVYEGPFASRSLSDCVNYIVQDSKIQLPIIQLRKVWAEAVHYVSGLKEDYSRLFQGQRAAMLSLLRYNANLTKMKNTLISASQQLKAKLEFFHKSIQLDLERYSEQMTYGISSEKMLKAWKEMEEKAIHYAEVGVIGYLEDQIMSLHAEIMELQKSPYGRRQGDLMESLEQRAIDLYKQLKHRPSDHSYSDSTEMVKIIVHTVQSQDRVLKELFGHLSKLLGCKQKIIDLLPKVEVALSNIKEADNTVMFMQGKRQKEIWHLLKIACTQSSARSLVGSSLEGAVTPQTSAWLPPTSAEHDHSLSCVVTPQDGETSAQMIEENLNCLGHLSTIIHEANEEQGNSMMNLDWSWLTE
# Chain of UniProt Q9Y616 (whole entry, looked up): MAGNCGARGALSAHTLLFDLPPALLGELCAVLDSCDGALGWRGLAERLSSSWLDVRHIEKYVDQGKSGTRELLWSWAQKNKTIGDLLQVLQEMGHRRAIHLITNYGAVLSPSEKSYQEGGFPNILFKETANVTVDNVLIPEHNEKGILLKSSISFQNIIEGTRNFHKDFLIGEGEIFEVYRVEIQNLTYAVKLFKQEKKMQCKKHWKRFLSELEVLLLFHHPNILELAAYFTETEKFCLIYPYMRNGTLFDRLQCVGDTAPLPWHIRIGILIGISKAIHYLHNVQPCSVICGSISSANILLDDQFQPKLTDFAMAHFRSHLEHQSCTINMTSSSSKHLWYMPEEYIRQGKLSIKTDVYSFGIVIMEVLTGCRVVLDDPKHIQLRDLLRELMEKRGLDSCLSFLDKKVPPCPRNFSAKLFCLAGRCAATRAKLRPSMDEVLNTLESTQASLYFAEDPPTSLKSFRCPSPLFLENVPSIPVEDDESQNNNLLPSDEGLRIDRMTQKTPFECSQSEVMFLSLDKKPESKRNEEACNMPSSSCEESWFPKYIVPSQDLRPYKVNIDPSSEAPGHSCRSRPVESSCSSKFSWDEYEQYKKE
# Chain of UniProt P36507 (whole entry, looked up): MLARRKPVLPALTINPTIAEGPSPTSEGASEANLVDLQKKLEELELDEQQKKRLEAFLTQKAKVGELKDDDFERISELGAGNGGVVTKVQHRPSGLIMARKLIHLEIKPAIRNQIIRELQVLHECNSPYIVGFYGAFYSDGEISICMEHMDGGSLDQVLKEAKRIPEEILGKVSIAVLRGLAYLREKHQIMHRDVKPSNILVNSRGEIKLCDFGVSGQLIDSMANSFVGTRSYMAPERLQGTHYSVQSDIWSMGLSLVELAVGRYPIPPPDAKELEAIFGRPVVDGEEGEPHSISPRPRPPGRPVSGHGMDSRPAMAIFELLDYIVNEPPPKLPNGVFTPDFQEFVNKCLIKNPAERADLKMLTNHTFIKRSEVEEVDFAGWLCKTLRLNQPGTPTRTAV
# Chain of UniProt P07948 (whole entry, looked up): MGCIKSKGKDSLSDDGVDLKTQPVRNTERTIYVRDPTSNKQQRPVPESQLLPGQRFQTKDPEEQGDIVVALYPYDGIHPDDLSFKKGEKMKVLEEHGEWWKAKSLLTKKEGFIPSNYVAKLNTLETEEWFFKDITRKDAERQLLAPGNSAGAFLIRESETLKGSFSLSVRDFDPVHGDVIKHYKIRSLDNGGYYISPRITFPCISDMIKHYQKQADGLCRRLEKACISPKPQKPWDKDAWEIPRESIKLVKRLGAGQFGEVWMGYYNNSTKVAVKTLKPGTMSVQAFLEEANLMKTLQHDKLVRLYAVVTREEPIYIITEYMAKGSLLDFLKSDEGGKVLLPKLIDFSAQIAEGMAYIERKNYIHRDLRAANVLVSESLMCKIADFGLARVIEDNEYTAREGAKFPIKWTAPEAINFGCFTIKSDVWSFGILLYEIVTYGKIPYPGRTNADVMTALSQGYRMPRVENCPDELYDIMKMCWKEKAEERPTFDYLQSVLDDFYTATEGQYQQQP

# Study 1
# SMILES: Cc1ncsc1-c1ccc(C(CO)NC(=O)C2CC(O)CN2C(=O)C(C(C)C)n2cc(-c3ccc(COc4c(-c5c(C)c(F)cc6[nH]ncc56)c(C5CC5)cc5c(N6CC7CC6CN7)nc(OC6CCOCC6)nc45)cc3)nn2)cc1 (centres unmarked)
# Observed: cell growth or viability
# Technique: ATP luminescence
# Time: 6 days
cell line,setting,viability
NCI-H358,0.1 µM,85.1% and 64.6% and 50.8% and 67.3%
GP2d,300 pM,61.7% and 83% and 74.4% and 61%
A-375,3 µM,85.5% and 93.3% and 83.2% and 94.9%
GP2d,0.3 µM,25.6% and 26.1% and 28.1% and 21.9%
SK-CO-1,3 nM,104% and 116% and 99.6% and 100%
SW-403,0.1 µM,59.3% and 52.4% and 61.9% and 69%
T24,3 nM,102% and 101% and 95% and 98.7%

# Study 2
# Compound: C[C@@H]1CN(c2ccc(-c3cc(C(=O)NCCOCCOCCOCCOCCNC(=O)Cn4cc(-c5[nH]cc(C(=O)N[C@@H](CC(N)=O)c6ccc(F)c(Cl)c6)c5-c5ccc(Cl)cc5F)cn4)ccc3F)cc2NC(=O)c2c[nH]c(=O)cc2C(F)(F)F)C[C@H](C)N1C
# Observed: thermal unfolding
# Technique: differential scanning fluorimetry
# Concentration: 5.5 µM
# Direction: higher = more unfolded
# WDR5: WD repeat-containing protein 5 (WDR5, Homo sapiens, UniProt P61964)
# DCAF1: DDB1- and CUL4-associated factor 1 (DCAF1, Homo sapiens, UniProt Q9Y4B6)
# Chain of UniProt Q9Y4B6 (whole entry, looked up): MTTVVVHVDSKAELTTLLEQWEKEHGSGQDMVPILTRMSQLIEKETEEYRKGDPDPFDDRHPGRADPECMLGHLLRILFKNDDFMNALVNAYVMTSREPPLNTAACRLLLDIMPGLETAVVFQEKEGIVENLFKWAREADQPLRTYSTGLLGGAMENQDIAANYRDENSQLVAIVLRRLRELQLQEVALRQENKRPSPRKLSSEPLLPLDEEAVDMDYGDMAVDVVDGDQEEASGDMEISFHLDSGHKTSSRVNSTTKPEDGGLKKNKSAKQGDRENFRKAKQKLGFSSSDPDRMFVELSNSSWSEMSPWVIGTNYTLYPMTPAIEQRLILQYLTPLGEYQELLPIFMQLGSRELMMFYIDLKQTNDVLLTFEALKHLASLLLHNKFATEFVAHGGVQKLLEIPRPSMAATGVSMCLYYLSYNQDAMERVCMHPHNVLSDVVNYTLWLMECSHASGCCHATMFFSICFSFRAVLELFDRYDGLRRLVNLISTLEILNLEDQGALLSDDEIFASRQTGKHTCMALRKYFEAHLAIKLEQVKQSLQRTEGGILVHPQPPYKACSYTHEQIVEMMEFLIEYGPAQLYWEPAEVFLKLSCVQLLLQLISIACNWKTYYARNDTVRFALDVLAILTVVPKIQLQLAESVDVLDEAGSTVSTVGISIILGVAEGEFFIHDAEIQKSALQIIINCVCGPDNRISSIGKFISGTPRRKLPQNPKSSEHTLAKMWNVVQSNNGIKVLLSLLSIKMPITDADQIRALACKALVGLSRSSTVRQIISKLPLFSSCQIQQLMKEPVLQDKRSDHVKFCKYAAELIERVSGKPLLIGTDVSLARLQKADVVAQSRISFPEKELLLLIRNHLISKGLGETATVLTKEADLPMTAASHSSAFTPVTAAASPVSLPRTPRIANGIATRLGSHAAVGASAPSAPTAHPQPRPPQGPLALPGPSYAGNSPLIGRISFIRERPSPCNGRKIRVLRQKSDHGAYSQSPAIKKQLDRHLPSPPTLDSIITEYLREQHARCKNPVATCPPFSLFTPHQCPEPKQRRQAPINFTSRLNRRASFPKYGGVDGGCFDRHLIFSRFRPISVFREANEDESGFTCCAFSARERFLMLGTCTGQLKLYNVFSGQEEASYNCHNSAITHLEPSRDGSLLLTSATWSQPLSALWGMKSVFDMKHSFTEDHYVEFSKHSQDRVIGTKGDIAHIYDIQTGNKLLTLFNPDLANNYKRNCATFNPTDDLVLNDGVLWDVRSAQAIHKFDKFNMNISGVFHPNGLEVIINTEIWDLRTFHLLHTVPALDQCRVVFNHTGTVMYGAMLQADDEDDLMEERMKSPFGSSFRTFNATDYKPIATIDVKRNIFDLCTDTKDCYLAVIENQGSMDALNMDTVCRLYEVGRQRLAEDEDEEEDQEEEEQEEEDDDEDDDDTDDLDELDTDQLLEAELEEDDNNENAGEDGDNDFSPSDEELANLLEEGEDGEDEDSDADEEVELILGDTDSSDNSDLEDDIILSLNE
target,setting,SYPRO Orange fluorescence [a.u.]
WDR5,65.41 °C,7450
DCAF1,55.21 °C,19900
DCAF1,74.21 °C,50100
WDR5,84.21 °C,37400
DCAF1,53.81 °C,17500
DCAF1,76.81 °C,47300
WDR5,65.01 °C,7620

# Study 3
# Compound: CCN1/C(=C/C=C2\CCCC(/C=C/C3=[N+](CC)c4ccccc4C3(C)C)=C2NCCCCCCCCN2CCC(Nc3nc4ccccc4n3Cc3ccc(F)cc3)CC2)C(C)(C)c2ccccc21
# Cell line: U-87 MG
# Concentration: concentration not given
# Reference: DMSO
assay,log2 fold change
measured: LONRF2 mRNA,2.26
measured: JMY mRNA,1.57
measured: SLX4 mRNA,-1.28
measured: PDE5A mRNA,-0.838
measured: FOXP1 mRNA,0.987
measured: FOXM1 mRNA,-1.49
measured: GPR35 mRNA,1.98
measured: HOPX mRNA,-1.87
measured: ENHO mRNA,-2.87
measured: TENT5B mRNA,-3.75
measured: SLC25A18 mRNA,-1.7

# Study 4
# SMILES: CCC1(c2cccc(-c3cn(C)nc3C)c2)C2=C(Nc3n[nH]cc31)C(F)C(C)(C)CC2=O (single isomer, unassigned)
# Concentration: 1 µM
target,assay,scale,remaining binding [%]
"Ribosomal protein S6 kinase alpha-4, N-terminal kinase domain (RPS6KA4, Homo sapiens, UniProt O75676)","kinase binding, KINOMEscan",reference: DMSO control,93
"LYN (Homo sapiens, UniProt P07948)","kinase binding, KINOMEscan",reference: DMSO control,100
"TGFBR2 (Homo sapiens, UniProt P37173)","binding, competition with immobilised ligand",,100
"PRKCQ (Homo sapiens, UniProt Q04759)","kinase binding, KINOMEscan",reference: DMSO control,73
"CHUK (Homo sapiens, UniProt O15111)","kinase binding, KINOMEscan",reference: DMSO control,90
"MAP2K2 (Homo sapiens, UniProt P36507)","binding, competition with immobilised ligand",,91
"MAPK11 (Homo sapiens, UniProt Q15759)","kinase binding, KINOMEscan",reference: DMSO control,100
"EGFR (Homo sapiens, UniProt P00533, del747-752/P753S)","binding, competition with immobilised ligand",,64
"CDK4 (Homo sapiens, UniProt P11802)","binding, competition with immobilised ligand",,71
"IRAK3 (Homo sapiens, UniProt Q9Y616)","binding, competition with immobilised ligand",,82

# Repeated from above (study 2):
target,setting,SYPRO Orange fluorescence [a.u.]
DCAF1,74.21 °C,50100
WDR5,84.21 °C,37400
DCAF1,53.81 °C,17500
DCAF1,76.81 °C,47300
WDR5,65.01 °C,7620
